Measured values pooled from the literature.
Numbered parts are unrelated; each lists some results of a single study.
Sequence of UniProt Q04912 (whole entry, looked up): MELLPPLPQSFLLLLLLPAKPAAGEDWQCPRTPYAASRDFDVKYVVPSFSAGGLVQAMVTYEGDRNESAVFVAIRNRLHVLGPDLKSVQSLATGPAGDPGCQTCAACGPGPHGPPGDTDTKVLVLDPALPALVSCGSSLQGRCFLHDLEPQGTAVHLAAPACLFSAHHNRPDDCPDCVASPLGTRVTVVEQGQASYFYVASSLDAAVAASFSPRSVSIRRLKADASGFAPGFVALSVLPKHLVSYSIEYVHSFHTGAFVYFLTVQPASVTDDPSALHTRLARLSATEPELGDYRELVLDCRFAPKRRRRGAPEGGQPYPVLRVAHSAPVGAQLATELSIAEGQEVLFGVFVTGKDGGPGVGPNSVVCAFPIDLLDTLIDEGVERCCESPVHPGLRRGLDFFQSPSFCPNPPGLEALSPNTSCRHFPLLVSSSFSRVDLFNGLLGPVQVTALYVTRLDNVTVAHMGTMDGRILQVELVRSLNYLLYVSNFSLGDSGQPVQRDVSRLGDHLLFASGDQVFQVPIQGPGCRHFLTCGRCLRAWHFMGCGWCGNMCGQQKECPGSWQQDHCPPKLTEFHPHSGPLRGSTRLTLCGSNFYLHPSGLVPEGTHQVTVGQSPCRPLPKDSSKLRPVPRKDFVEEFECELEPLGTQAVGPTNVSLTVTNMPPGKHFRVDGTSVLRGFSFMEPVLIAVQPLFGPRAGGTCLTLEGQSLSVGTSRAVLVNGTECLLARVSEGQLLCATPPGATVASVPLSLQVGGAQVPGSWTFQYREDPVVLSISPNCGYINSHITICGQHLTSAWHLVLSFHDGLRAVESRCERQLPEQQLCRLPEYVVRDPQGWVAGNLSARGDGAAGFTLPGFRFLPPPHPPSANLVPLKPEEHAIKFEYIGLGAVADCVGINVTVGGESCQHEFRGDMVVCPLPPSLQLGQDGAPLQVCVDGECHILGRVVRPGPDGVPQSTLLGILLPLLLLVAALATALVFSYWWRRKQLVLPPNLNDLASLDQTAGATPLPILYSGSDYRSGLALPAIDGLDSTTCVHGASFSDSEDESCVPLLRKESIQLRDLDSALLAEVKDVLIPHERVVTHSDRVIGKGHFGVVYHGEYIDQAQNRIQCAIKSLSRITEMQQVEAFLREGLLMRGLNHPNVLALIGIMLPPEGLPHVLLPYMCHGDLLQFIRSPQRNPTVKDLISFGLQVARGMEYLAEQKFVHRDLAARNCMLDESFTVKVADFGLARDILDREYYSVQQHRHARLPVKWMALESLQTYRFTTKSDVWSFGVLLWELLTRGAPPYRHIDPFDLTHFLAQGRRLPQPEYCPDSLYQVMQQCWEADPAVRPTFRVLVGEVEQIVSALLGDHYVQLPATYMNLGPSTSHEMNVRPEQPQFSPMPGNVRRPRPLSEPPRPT
Sequence of UniProt Q9UL54 (whole entry, looked up): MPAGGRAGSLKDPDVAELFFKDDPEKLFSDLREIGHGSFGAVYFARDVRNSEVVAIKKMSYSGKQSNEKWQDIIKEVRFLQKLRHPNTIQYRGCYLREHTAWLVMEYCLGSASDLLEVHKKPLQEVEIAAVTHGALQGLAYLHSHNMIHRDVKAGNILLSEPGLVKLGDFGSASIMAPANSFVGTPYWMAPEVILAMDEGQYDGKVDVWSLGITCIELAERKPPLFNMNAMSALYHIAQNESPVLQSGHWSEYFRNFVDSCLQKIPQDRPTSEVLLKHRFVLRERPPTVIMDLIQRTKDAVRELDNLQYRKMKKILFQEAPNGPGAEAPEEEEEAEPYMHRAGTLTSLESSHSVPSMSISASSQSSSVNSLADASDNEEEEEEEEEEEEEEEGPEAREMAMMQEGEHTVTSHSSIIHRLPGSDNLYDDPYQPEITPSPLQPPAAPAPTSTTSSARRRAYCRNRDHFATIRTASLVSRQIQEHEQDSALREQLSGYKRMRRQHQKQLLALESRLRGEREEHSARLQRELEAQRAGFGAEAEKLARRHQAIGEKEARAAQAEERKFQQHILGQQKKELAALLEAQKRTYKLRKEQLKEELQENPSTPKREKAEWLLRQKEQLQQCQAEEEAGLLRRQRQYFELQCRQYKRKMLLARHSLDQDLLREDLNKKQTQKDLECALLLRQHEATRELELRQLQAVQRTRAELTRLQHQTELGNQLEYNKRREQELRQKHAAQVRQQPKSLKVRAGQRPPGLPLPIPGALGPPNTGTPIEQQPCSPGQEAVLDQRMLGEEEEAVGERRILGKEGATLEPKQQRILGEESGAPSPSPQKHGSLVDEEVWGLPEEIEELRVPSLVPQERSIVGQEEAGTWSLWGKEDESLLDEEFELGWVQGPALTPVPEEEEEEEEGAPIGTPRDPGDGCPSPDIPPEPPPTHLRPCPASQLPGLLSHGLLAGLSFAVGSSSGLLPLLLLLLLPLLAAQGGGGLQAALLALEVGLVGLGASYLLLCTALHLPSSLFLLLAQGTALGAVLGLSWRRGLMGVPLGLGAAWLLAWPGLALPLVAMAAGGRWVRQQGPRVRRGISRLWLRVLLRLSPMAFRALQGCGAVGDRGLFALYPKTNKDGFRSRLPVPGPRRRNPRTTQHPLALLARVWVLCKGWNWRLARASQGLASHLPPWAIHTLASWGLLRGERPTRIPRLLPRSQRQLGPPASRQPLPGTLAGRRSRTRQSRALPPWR
Sequence of UniProt Q96LB1 (whole entry, looked up): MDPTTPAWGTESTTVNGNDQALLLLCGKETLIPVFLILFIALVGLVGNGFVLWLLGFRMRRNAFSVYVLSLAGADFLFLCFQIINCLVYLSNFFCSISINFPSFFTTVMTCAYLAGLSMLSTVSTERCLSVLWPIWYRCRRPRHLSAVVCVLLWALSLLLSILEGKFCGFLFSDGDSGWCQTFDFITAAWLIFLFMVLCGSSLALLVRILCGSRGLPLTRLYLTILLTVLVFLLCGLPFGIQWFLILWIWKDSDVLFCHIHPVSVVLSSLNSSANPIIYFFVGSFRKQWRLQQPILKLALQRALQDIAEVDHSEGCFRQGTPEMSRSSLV
Sequence of UniProt Q12866 (whole entry, looked up): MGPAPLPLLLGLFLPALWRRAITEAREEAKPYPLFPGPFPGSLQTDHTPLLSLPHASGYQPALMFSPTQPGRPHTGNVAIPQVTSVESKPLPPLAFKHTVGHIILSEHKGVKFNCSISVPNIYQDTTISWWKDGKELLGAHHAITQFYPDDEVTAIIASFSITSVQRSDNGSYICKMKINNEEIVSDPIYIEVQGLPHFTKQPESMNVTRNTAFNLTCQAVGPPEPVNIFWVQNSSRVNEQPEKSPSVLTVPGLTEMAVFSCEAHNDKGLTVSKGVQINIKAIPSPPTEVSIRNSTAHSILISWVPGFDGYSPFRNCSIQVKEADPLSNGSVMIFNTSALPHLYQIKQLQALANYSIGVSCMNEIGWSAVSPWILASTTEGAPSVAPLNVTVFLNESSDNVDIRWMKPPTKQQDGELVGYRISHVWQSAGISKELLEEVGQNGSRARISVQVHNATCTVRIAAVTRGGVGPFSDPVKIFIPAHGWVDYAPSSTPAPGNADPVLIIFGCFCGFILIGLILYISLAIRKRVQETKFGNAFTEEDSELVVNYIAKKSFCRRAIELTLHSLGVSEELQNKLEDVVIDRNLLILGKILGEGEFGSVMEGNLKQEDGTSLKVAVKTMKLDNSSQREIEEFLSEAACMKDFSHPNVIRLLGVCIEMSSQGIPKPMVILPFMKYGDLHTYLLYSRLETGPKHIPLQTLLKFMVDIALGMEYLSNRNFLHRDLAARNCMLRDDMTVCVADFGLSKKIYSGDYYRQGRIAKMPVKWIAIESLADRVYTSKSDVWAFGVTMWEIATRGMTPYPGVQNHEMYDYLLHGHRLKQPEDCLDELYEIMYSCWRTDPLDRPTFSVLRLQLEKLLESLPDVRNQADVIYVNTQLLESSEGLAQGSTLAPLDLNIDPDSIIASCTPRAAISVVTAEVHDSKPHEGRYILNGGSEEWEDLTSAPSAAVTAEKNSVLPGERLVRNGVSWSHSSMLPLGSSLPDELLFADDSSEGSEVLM
Sequence of UniProt P78368 (whole entry, looked up): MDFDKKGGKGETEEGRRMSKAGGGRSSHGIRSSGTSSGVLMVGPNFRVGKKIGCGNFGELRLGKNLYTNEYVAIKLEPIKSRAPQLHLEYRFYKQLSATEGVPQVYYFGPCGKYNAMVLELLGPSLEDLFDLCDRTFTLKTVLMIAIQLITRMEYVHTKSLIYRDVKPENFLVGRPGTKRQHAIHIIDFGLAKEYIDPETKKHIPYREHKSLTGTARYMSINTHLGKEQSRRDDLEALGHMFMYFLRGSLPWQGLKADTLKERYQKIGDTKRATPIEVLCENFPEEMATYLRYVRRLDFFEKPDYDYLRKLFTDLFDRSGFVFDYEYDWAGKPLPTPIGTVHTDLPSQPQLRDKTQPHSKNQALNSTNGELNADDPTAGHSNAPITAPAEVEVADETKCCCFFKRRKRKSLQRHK
Sequence of UniProt P27361 (whole entry, looked up): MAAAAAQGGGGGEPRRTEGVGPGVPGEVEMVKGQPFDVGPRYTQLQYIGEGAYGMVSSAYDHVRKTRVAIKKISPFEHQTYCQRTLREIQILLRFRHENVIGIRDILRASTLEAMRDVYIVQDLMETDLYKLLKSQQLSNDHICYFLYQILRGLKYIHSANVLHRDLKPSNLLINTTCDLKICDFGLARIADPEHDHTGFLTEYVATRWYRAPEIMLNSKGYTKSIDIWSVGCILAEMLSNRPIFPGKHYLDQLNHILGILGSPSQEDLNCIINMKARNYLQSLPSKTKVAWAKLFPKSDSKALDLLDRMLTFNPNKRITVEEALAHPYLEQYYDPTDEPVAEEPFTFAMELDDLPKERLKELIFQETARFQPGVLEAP
Sequence of UniProt Q9HC98 (whole entry, looked up): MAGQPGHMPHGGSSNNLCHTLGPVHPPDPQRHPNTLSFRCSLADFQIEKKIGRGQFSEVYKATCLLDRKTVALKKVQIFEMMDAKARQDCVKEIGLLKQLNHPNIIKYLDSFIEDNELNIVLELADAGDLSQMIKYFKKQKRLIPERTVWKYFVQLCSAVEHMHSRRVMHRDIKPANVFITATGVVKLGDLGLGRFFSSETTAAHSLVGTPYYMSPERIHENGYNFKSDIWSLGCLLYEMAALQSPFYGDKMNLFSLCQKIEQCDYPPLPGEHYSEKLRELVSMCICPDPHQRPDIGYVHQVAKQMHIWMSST

Block 1
Cell line: sample B colorectal tumour organoid
Concentration: 1 µM
Relative to: DMSO
SMILES | viability [%]
Cc1ncc(-c2cc(Cl)ccc2F)cc1-n1c(=O)n(CC(N)=O)c2ccccc21 | 114
CN(C)C(=O)Cn1cc(-c2ccc(-c3nnc4ccccn34)cc2)cn1 | 110
COc1ccc2c(O[C@@H]3C[C@H]4C(=O)N[C@]5(C(=O)O)CC5/C=C\CCCCC[C@H](NC(=O)OC5CCCC5)C(=O)N4C3)cc(-c3csc(NC(=O)C(C)C)n3)nc2c1C (stereo partly drawn) | 104
Cn1cc(-c2ccc3occ(-c4ccccc4-c4ccccc4)c3n2)cn1 | 120

Block 2
Structure (SMILES): O=S(=O)(NCCNC/C=C/c1ccc(Br)cc1)c1cccc2cnccc12
Observed: enzyme activity
Mode: inhibitor
Concentration: 0.5 µM
Relative to: control
target | remaining activity
TAOK2 (Homo sapiens, UniProt Q9UL54) | 90.7%
RPS6KA2 (Homo sapiens, UniProt Q15349) | 79.2%
ULK2 (Homo sapiens, UniProt Q8IYT8) | 98.9%
JAK3 (Homo sapiens, UniProt P52333) | 122%
TBK1 (Homo sapiens, UniProt Q9UHD2) | 101%
MAPK3 (Homo sapiens, UniProt P27361) | 84.8%
LCK (Homo sapiens, UniProt P06239) | 103%
MST1R (Homo sapiens, UniProt Q04912) | 97.4%
CSNK1G2 (Homo sapiens, UniProt P78368) | 86.8%
NEK6 (Homo sapiens, UniProt Q9HC98) | 100%
MAP2K2 (Homo sapiens, UniProt P36507) | 103%
WEE1 (Homo sapiens, UniProt P30291) | 84.6%
EPHA3 (Homo sapiens, UniProt P29320) | 109%
FGFR1 (Homo sapiens, UniProt P11362) | 87.6%
GSK3B (Homo sapiens, UniProt P49841) | 83.5%
MERTK (Homo sapiens, UniProt Q12866) | 79.8%
CSNK1G3 (Homo sapiens, UniProt Q9Y6M4) | 93.3%
TEK (Homo sapiens, UniProt Q02763) | 99.8%
MAP3K5 (Homo sapiens, UniProt Q99683) | 93.2%
ARAF (Homo sapiens, UniProt P10398) | 95.8%
MAP3K14 (Homo sapiens, UniProt Q99558) | 83.6%
NEK1 (Homo sapiens, UniProt Q96PY6) | 94.4%
FGFR3 (Homo sapiens, UniProt P22607) | 91.3%

Block 3
Method: PRP chromatography
Setting: linear fit, 1 mL
SMILES | logD 1,9-decadiene/water
CC(C)C[C@@H]1NC(=O)[C@H](CC(C)C)NC(=O)[C@@H](C(C)C)NC(=O)[C@H](CC(C)C)NC(=O)[C@H](C(C)C)NC(=O)[C@H](Cc2cscn2)NC(=O)[C@H](C)NC1=O | -2.15 log units
CC(C)C[C@@H]1NC(=O)[C@H](C)NC(=O)[C@@H](CC(C)C)NC(=O)[C@@H](CC(C)C)NC(=O)[C@@H](CCC(=O)N2CCCC2)NC(=O)[C@H](CC(C)C)NC(=O)[C@@H](CC(C)C)NC1=O | 0.0568 log units
CC(C)C[C@@H]1NC(=O)[C@H](C)NC(=O)[C@H](C)NC(=O)[C@@H](CC(C)C)NC(=O)[C@H](C(C)C)NC(=O)[C@H](CC(C)C)NC(=O)[C@@H](CC(C)C)NC1=O | -0.765 log units
CC(C)C[C@@H]1NC(=O)[C@H](C)NC(=O)[C@H](C)NC(=O)[C@H](C)NC(=O)[C@H](C(C)C)NC(=O)[C@H](CC(C)C)NC(=O)[C@@H](CC(C)C)NC1=O | -2.3 log units
CC(C)C[C@@H]1NC(=O)[C@H](CC(C)C)NC(=O)[C@H](CC(C)C)NC(=O)[C@@H](C)NC(=O)[C@H](C)NC(=O)[C@@H](CC(C)C)NC(=O)[C@H](C)NC1=O | -1.84 log units

Block 4
Host: mouse
Matrix: microsomes or S9
Concentration: 2 µM
Time: 0.5 h
SMILES | remaining compound [%]
O=C(Cn1c(=O)n2nc(-c3cccnc3)nc2c2c3c(sc21)CCC3)NCc1ccco1 | 53.9
CN(C(=O)NCC(=O)NC1C2CC3CC1CC(C(N)=O)(C3)C2)c1c(Cl)cc(Cl)cc1Cl (stereo not drawn) | 0.678
Cc1ccc(C(=O)c2[nH]c3ccccc3c2CC(=O)O)cc1 | 52.9
C=CCn1c(N)nnc1SC(C)C(=O)NC(N)=O (stereo not drawn) | 99.6
CC(C)COc1cc(=O)n2c(c1C(=O)NCCCn1cccn1)CCCCC2 | 66.2
Cc1cc(C)cc(-n2nc(C(=O)N(CC(N)=O)CC(C)C)cc2C)c1 | 4.92

Block 5
Compound: CCN(c1nc(N)c(C(=O)N=C(N)N)nc1Cl)C(C)C
Observed: β-arrestin recruitment
Mode: agonist
Method: PRESTO-Tango
Concentration: 10 µM
Relative to: untreated
target | fold over basal
GPR37L1 (Homo sapiens, UniProt O60883) | 0.83
GPER1 (Homo sapiens, UniProt Q99527) | 0.99
MRGPRX2 (Homo sapiens, UniProt Q96LB1) | 0.83

Block 6
Cell line: HaCaT
Concentration: 100 µM
Time: 18 h
SMILES | viability [%]
O=S(=O)(O)Oc1ccc(C(c2ccc(OS(=O)(=O)O)cc2)c2ccccn2)cc1 | 117
[H]/N=C(/N)NS(=O)(=O)c1ccc(N)cc1 | 108
CCOC(=O)CC(=O)N1CCSC1COc1ccccc1OC (stereo not drawn) | 99.5
Nc1c2c(nc3ccccc13)CCCC2 | 75.4
CCCC(C(=O)OCCN(CC)CC)(c1ccccc1)c1ccccc1 | 17.6
CCN(CCCc1ccccc1)CCCc1ccccc1 | 57.9

Other studies, line by line
SMILES | target | test | setting | endpoint | result
COc1ccc2[nH]c3c4[nH]c5ccc(OC)cc5c4c4c(c3c2c1)C(=O)NC4=O | NT-3 growth factor receptor (NTRK3, Homo sapiens, UniProt Q16288) | binding, competition with immobilised ligand | 1 µM | remaining binding | 47%

A few entries again (block 3):
SMILES | logD 1,9-decadiene/water
CC(C)C[C@@H]1NC(=O)[C@H](CC(C)C)NC(=O)[C@@H](C(C)C)NC(=O)[C@H](CC(C)C)NC(=O)[C@H](C(C)C)NC(=O)[C@H](Cc2cscn2)NC(=O)[C@H](C)NC1=O | -2.15 log units
CC(C)C[C@@H]1NC(=O)[C@H](C)NC(=O)[C@@H](CC(C)C)NC(=O)[C@@H](CC(C)C)NC(=O)[C@@H](CCC(=O)N2CCCC2)NC(=O)[C@H](CC(C)C)NC(=O)[C@@H](CC(C)C)NC1=O | 0.0568 log units
CC(C)C[C@@H]1NC(=O)[C@H](C)NC(=O)[C@H](C)NC(=O)[C@@H](CC(C)C)NC(=O)[C@H](C(C)C)NC(=O)[C@H](CC(C)C)NC(=O)[C@@H](CC(C)C)NC1=O | -0.765 log units
CC(C)C[C@@H]1NC(=O)[C@H](C)NC(=O)[C@H](C)NC(=O)[C@H](C)NC(=O)[C@H](C(C)C)NC(=O)[C@H](CC(C)C)NC(=O)[C@@H](CC(C)C)NC1=O | -2.3 log units
CC(C)C[C@@H]1NC(=O)[C@H](CC(C)C)NC(=O)[C@H](CC(C)C)NC(=O)[C@@H](C)NC(=O)[C@H](C)NC(=O)[C@@H](CC(C)C)NC(=O)[C@H](C)NC1=O | -1.84 log units
